Measured values gathered from unrelated publications.
Compare with care: the assays were run in different laboratories.
Organism: Escherichia coli

| Structure (SMILES) | assay | test system | setting | scale | MIC |
| --- | --- | --- | --- | --- | --- |
| CC[C@H](C)[C@H](NC(=O)CN)C(=O)N[C@@H](C)C(=O)N[C@@H](CCCCN)C(=O)N[C@@H](Cc1ccccc1)C(=O)N[C@H](C(=O)N[C@@H](CCCCN)C(=O)N[C@@H](CCCCN)C(=O)N[C@H](C(=O)N[C@@H](C)C(=O)N[C@@H](CCCCN)C(=O)N[C@@H](C)C(=O)N[C@@H](CC(C)C)C(=O)N[C@@H](CCCNC(=N)N)C(N)=O)[C@@H](C)CC)[C@@H](C)CC |  | ATCC 25922, Mueller-Hinton broth | 12 h, 37 °C |  | 8 µg/mL |
| CC[C@H](C)[C@H](N)C(=O)N[C@@H](CC(C)C)C(=O)NCC(=O)N[C@H](CCCNC(=N)N)C(=O)N[C@H](C(=O)N[C@@H](Cc1ccccc1)C(=O)N[C@@H](CCCCN)C(=O)NCC(=O)N[C@H](C(=O)N[C@@H](CCCCN)C(=O)N[C@@H](CC(=O)O)C(=O)N[C@H](C(=O)N[C@@H](CC(C)C)C(N)=O)[C@@H](C)CC)[C@@H](C)CC)[C@@H](C)CC | broth microdilution | ATCC 25922, Mueller-Hinton broth | 16 h, 37 °C |  | 12.5 µM |
| CC[C@H](C)[C@H](NC(=O)[C@H](CC(C)C)NC(=O)[C@H](CCCNC(=N)N)NC(=O)[C@@H](N)CCCNC(=N)N)C(=O)N[C@@H](CCCNC(=N)N)C(=O)N[C@@H](CCCCN)C(=O)N[C@@H](CC(C)C)C(=O)N[C@@H](CCCCN)C(=O)NCC(=O)N[C@@H](CC(C)C)C(=O)N[C@@H](CCCCN)C(=O)N[C@@H](CCCCN)C(=O)N[C@@H](Cc1ccc(O)cc1)C(=O)N[C@@H](CC(C)C)C(=O)N[C@@H](Cc1ccc(O)cc1)C(=O)N[C@@H](Cc1ccccc1)C(=O)N[C@@H](CCCCN)C(=O)N[C@@H](CC(C)C)C(=O)N[C@@H](CCC(N)=O)C(=O)N[C@@H](CC(C)C)C(=O)N[C@@H](CC(C)C)C(=O)N[C@@H](CCCCN)C(=O)N[C@@H](CCCCN)C(N)=O |  | KCTC 1682, Mueller-Hinton broth | together with: 1 mM MgCl2 |  | 8 µM |
| C[C@H]1COc2c(N3CCN(C)CC3)c(F)cc3c(=O)c(C(=O)O)cn1c23 | agar dilution | CDC 1001728 NDM-1 |  |  | 8 µg/mL |
| CC(C)Oc1c(NC(=O)c2ccc(NC(=O)[C@H](CC(N)=O)NC(=O)c3ccc(NC(=O)c4ccc(C#N)c(F)c4)cc3)cc2)ccc(C(=O)Nc2ccc(C(=O)O)cc2)c1O |  | K12 ΔtolC |  |  | ≤ 0.03 µg/mL |
| CC(C)Oc1c(NC(=O)c2ccc(N3C(=O)C[C@H](NC(=O)c4ccc(NC(=O)c5ccc(C#N)cc5)cc4)C3=O)cc2)ccc(C(=O)N/N=C/c2ccnn2C)c1O |  | BW25113 | 18 h, 37 °C, dark-adapted state |  | 0.1 µg/mL |
| CC[C@H](C)[C@H](NC(=O)CNC(=O)[C@H](CC(=O)O)NC(=O)[C@H](CCCNC(=N)N)NC(=O)[C@@H](NC(=O)[C@H](CC(N)=O)NC(=O)[C@H](CCCNC(=N)N)NC(=O)CNC(=O)[C@@H](NC(=O)[C@H](CCCCN)NC(=O)[C@H](CCC(=O)O)NC(=O)[C@@H](NC(=O)[C@H](CCCCN)NC(=O)[C@H](CCC(=O)O)NC(=O)[C@H](Cc1ccccc1)NC(=O)[C@@H](NC(=O)[C@H](CCCCN)NC(=O)[C@H](Cc1c[nH]c2ccccc12)NC(=O)[C@@H](N)CCCNC(=N)N)[C@@H](C)CC)[C@@H](C)CC)C(C)C)C(C)C)C(=O)N[C@H](C(=O)N[C@@H](CCCCN)C(=O)N[C@@H](C)C(=O)NCC(=O)N1CCC[C@H]1C(=O)N[C@@H](C)C(=O)N[C@H](C(=O)N[C@@H](C)C(=O)N[C@H](C(=O)N[C@H](C(=O)NCC(=O)N[C@@H](CCC(N)=O)C(=O)N[C@@H](C)C(=O)N[C@@H](C)C(=O)N[C@H](C(=O)N[C@H](C(=O)N[C@H](C(=O)N[C@@H](CCCCN)C(N)=O)C(C)C)C(C)C)[C@@H](C)O)C(C)C)C(C)C)C(C)C)[C@@H](C)CC |  | K1 ATCC 700973, Mueller-Hinton broth | 16 h, 37 °C | growth inhibition over 99% | 32 µM |
| CC[C@H](C)[C@H](NC(=O)[C@H](Cc1ccc(O)cc1)NC(=O)[C@@H](NC(=O)[C@@H]1CCCN1C(=O)[C@H](CCCNC(=N)N)NC(=O)[C@H](CC(N)=O)NC(=O)[C@H](CC(N)=O)NC(=O)CN)C(C)C)C(=O)N1CCC[C@H]1C(=O)N[C@@H](CCC(N)=O)C(=O)N1CCC[C@H]1C(=O)N[C@@H](CCCNC(=N)N)C(=O)N1CCC[C@H]1C(=O)N1CCC[C@H]1C(=O)N[C@@H](Cc1c[nH]cn1)C(=O)N1CCC[C@H]1C(=O)N[C@@H](CCCNC(=N)N)C(=O)N[C@@H](CC(C)C)C(=O)O | broth dilution | K12 BW25113 | 18 h, 37 °C |  | 9.4 µM |
| C[C@@H](O)[C@H]1C(=O)N2C(C(=O)O)=C(S[C@@H]3CN[C@H](C(=O)N(C)C)C3)[C@H](C)[C@H]12 |  | DH5α expressing KPC-100 |  |  | 0.25 µg/mL |
| CC[C@H](C)[C@H](NC(=O)CNC(=O)[C@H](CC(=O)O)NC(=O)[C@H](CCCNC(=N)N)NC(=O)[C@@H](NC(=O)[C@H](CC(N)=O)NC(=O)[C@H](C)NC(=O)CNC(=O)[C@@H](NC(=O)[C@H](CCCCN)NC(=O)[C@H](CCC(=O)O)NC(=O)[C@@H](NC(=O)[C@H](CCCCN)NC(=O)[C@H](CCCCN)NC(=O)[C@H](Cc1ccccc1)NC(=O)[C@@H](NC(=O)[C@H](CCCCN)NC(=O)[C@H](Cc1c[nH]c2ccccc12)NC(=O)[C@@H](N)CCCNC(=N)N)[C@@H](C)CC)[C@@H](C)CC)C(C)C)C(C)C)C(=O)N[C@H](C(=O)N[C@@H](CCCCN)C(=O)N[C@@H](C)C(=O)NCC(=O)N1CCC[C@H]1C(=O)N[C@@H](C)C(=O)N[C@H](C(=O)N[C@@H](C)C(=O)N[C@H](C(=O)N[C@H](C(=O)NCC(=O)N[C@@H](CCC(N)=O)C(=O)N[C@@H](C)C(=O)N[C@@H](C)C(=O)N[C@H](C(=O)N[C@H](C(=O)N[C@H](C(=O)N[C@@H](CCCCN)C(N)=O)C(C)C)C(C)C)[C@@H](C)O)C(C)C)C(C)C)C(C)C)[C@@H](C)CC |  | K1 ATCC 700973, Mueller-Hinton broth | 16 h, 37 °C | growth inhibition over 99% | 2 µM |
| CC(C)C[C@H](NC(=O)[C@H](CC(C)C)NC(=O)[C@@H](N)[C@@H](C)O)C(=O)N[C@@H](CCCCN)C(=O)N[C@@H](CCCCN)C(=O)N[C@H](C(=O)N[C@@H](CC(C)C)C(=O)N[C@@H](CCCCN)C(=O)N[C@@H](C)C(=O)N[C@@H](C)C(=O)N[C@@H](C)C(=O)N[C@@H](CCCCN)C(=O)O)C(C)C |  | TG1 |  |  | > 25 µM |
| CC(C)CC1NC(=O)C(C(=O)NC(C(=O)NC2C(=O)N3C2SC(C)(C)C3C(=O)O)c2ccccc2)=C1O (centres unmarked) | broth microdilution | JW0790-2 fiu deletion mutant | ferric iron uptake gene |  | 25 µg/mL |
| CCCCCCC/C=C/C(=O)N1C(=O)/C(=C(\O)c2ccccc2)C(=O)C1CC(C)C (centres unmarked) |  | K12 ΔtolC |  |  | 1.56 µg/mL |
| C[C@@H](O)[C@H]1C(=O)N2C(C(=O)O)=C(S[C@@H]3CN[C@H](C(=O)N(C)C)C3)[C@H](C)[C@H]12 |  | BL21(DE3) wild type |  |  | < 0.09 µg/mL |
| CC(C)C[C@@H](NC(=O)CNC(=O)[C@@H](CCCCN)NC(=O)[C@@H](CC(C)C)NC(=O)[C@@H](CCCCN)NC(=O)[C@@H](CCCNC(=N)N)NC(=O)[C@@H](CC(C)C)NC(=O)[C@@H](CC(C)C)NC(=O)[C@@H](CCCNC(=N)N)NC(=O)[C@H](N)CCCNC(=N)N)C(=O)N[C@H](CCCCN)C(=O)N[C@H](CCCCN)C(=O)N[C@H](Cc1ccc(O)cc1)C(=O)N[C@H](CC(C)C)C(=O)N[C@H](Cc1ccc(O)cc1)C(=O)N[C@H](Cc1ccccc1)C(=O)N[C@H](CCCCN)C(=O)N[C@H](CC(C)C)C(=O)N[C@H](CCC(N)=O)C(=O)N[C@H](CC(C)C)C(=O)N[C@H](CC(C)C)C(=O)N[C@H](CCCCN)C(=O)N[C@H](CCCCN)C(N)=O | broth microdilution | KCTC 1682, Mueller-Hinton broth | together with: FeCl3 4 µM |  | 16 µM |
| CC[C@H](C)[C@H](NC(=O)[C@H](CCCCN)NC(=O)[C@@H]1CCCN1C(=O)[C@H](CCCNC(=N)N)NC(=O)[C@H](Cc1ccc(O)cc1)NC(=O)[C@H](CCCNC(=N)N)NC(=O)[C@H](CCCNC(=N)N)NC(=O)[C@@H](NC(=O)[C@H](CCCNC(=N)N)NC(=O)[C@H](CCCNC(=N)N)NC(=O)[C@H](CC(C)C)NC(=O)[C@H](Cc1ccccc1)NC(=O)[C@H](CCCNC(=N)N)NC(=O)[C@H](CO)NC(=O)[C@H](Cc1ccccc1)NC(=O)[C@@H](N)CCCNC(=N)N)C(C)C)C(=O)N[C@@H](CO)C(=O)N[C@@H](Cc1ccccc1)C(=O)N[C@@H](CC(N)=O)C(=O)N[C@@H](CC(C)C)C(=O)N[C@@H](CCC(=O)O)C(=O)N1CCC[C@H]1C(=O)N[C@@H](Cc1ccccc1)C(=O)N[C@@H](Cc1ccccc1)C(=O)N[C@@H](CCCCN)C(=O)N[C@@H](Cc1ccccc1)C(=O)O | broth microdilution | ATCC 25922, Mueller-Hinton broth | 16 to 20 h, 37 °C |  | 1.27 µM |
| CC[C@H](C)[C@H](NC(=O)[C@H](CCCNC(=N)N)NC(=O)[C@H](CO)NC(=O)[C@H](Cc1ccc(O)cc1)NC(=O)[C@@H](NC(=O)[C@@H](NC(=O)[C@H](C)NC(=O)CNC(=O)[C@H](CCCCN)NC(=O)[C@@H](N)CCCCN)C(C)C)[C@@H](C)O)C(=O)N[C@@H](CO)C(=O)NCC(=O)N[C@@H](CCC(N)=O)C(=O)N[C@@H](Cc1ccc(O)cc1)C(=O)N[C@@H](CCCCN)C(=O)O | broth microdilution | ATCC 25922, Mueller-Hinton broth | 16 to 18 h, 37 °C |  | > 96 µM |
| CC[C@H](C)[C@H](NC(=O)[C@H](C)NC(=O)[C@H](CCCCN)NC(=O)[C@H](CCCNC(=N)N)NC(=O)[C@H](CCCCN)NC(=O)[C@H](CCCNC(=N)N)NC(=O)[C@H](CCCCN)NC(=O)[C@@H](N)CCCNC(=N)N)C(=O)N[C@@H](CO)C(=O)NCC(=O)N[C@@H](CO)C(=O)N[C@@H](CC(C)C)C(=O)N[C@H](C(=O)N[C@H](C(=O)N[C@@H](CC(C)C)C(=O)N[C@@H](Cc1ccccc1)C(=O)NCC(=O)N[C@@H](Cc1ccc(O)cc1)C(N)=O)[C@@H](C)O)C(C)C | checkerboard |  | 24 h, 37 °C, alone, rifampicin plate |  | 16 µM |
| CC1(C)SC2C(NC(=O)C(NC(=O)C3=C(O)CN(c4ccccc4)C3=O)c3ccccc3)C(=O)N2C1C(=O)O (centres unmarked) | broth microdilution | isolate IU, CTX-M-14, TEM-1 | together with: clavulanic acid 6 µg/mL |  | > 200 µg/mL |
| COc1c(N2C[C@@H]3CCCN[C@@H]3C2)c(F)cc2c(=O)c(C(=O)O)cn(C3CC3)c12 |  | NR 51487, fluoroquinolone-resistant |  |  | 73 µM |

Excerpt of the above:
| Structure (SMILES) | assay | test system | setting | scale | MIC |
| --- | --- | --- | --- | --- | --- |
| CC[C@H](C)[C@H](NC(=O)[C@H](C)NC(=O)[C@H](CCCCN)NC(=O)[C@H](CCCNC(=N)N)NC(=O)[C@H](CCCCN)NC(=O)[C@H](CCCNC(=N)N)NC(=O)[C@H](CCCCN)NC(=O)[C@@H](N)CCCNC(=N)N)C(=O)N[C@@H](CO)C(=O)NCC(=O)N[C@@H](CO)C(=O)N[C@@H](CC(C)C)C(=O)N[C@H](C(=O)N[C@H](C(=O)N[C@@H](CC(C)C)C(=O)N[C@@H](Cc1ccccc1)C(=O)NCC(=O)N[C@@H](Cc1ccc(O)cc1)C(N)=O)[C@@H](C)O)C(C)C | checkerboard |  | 24 h, 37 °C, alone, rifampicin plate |  | 16 µM |
